Results of several laboratories.
“And” joins repeats or separate records; there may be more than shown. Numbers after ± are the reported error.
rep main protease: Replicase polyprotein 1ab, main protease (rep, Severe acute respiratory syndrome coronavirus 2, UniProt P0DTD1)

SMILES	target	assay	setting	measurement	result
CC(C)[C@@H]1CC[C@@H](C)C[C@H]1NC(=O)c1ccccc1[Se][Se]c1ccccc1C(=O)N[C@@H]1C[C@H](C)CC[C@H]1C(C)C	rep main protease	enzyme activity, inhibitor	40 µM	inhibition	96.6% and 95.6%
COc1cc(OC)cc(C(=O)N(CCC(=O)N2CCNCC2)Cc2cccc(Cl)c2)c1	Replicase polyprotein 1ab, nsp3 macrodomain (rep, Severe acute respiratory syndrome coronavirus 2, UniProt P0DTD1)	enzyme activity, inhibitor, ADPr-Glo	concentration not given, SARS-CoV-2	ADP-ribosylhydrolase inhibition	inhibited
Cc1ccc(OCCN(C)C)cc1C(=O)N[C@H](C)c1cc(-c2cncs2)nc2ccccc12	Replicase polyprotein 1ab, papain-like protease (rep, Severe acute respiratory syndrome coronavirus 2, UniProt P0DTD1)	reporter gene, cell-based		GFP/mCherry signal ratio	0.649 and 0 and -5.54 and 106 and 83.4
NCC(CCC(N)C(=O)O)CC1OC(n2cnc3c(N)ncnc32)C(O)C1O (centres unmarked)	Replicase polyprotein 1ab, nsp16 with nsp10 (rep, Severe acute respiratory syndrome coronavirus 2, UniProt P0DTD1)	nsp10-nsp16 methyltransferase activity, radiometric		Hill slope	1.2 ± 0.2
CNC(=O)CC[C@H](Cc1ccccc1)NC(=O)[C@@H](Cc1ccc(Cl)cc1Cl)NC(=O)[C@H](N)Cc1ccccc1[N+](=O)[O-]	rep main protease	3CL protease activity	1 µM	remaining activity	66.6%
O=c1oc2cc(O)ccc2c2cc(O)c(O)cc12	rep main protease			binding efficiency index	21.2
C[C@](C(=O)NC1CCOCC1)(c1cncnc1)N(C(=O)[C@H](F)Cl)c1ccc(OC(F)(F)Cl)cc1	rep main protease	enzyme activity	0.041 µM	inhibition	94.1% and 90.7%
C[C@@H]1C[C@H]2[C@@H](C[C@H]1n1[se]c3ccccc3c1=O)C2(C)C	rep main protease	enzyme activity, inhibitor	40 µM	inhibition	102%
C=CC(=O)N(c1ccc(C(C)(C)C)cc1)C(C(=O)NCCc1cccc(F)c1)c1cccnc1 (centres unmarked)	rep main protease	enzyme activity, inhibitor		kinact	0.00082 s⁻¹
CCCCCCCCCCCCCCCC[N+](C)(C)CCN(Cc1ccc(OC)cc1)c1ncccn1	rep main protease	fluorescence quenching	with: 3CLpro 3 µM	Stern-Volmer constant KSV	39600 L/mol
CC(=O)NS(=O)(=O)c1ccc(C2=NN(c3ccc(C#N)c(Cl)c3)C(C)C2)cc1 (centres unmarked)	Replicase polyprotein 1ab, nsp14 methyltransferase (rep, Severe acute respiratory syndrome coronavirus 2, UniProt P0DTD1)			lipophilic ligand efficiency	2.4
CCOc1ccc(CN2CC[C@H]2C(=O)NC)cc1-c1cccc(C(=O)NC[C@@H]2COC(C)(C)O2)c1	rep main protease	3CL protease activity	0.04576 µM	remaining activity	103%
CC1CCc2c(sc3ncnc(Sc4nnc(CN5CCCC5)o4)c23)C1 (centres unmarked)	rep main protease	protease activity, SAMDI-MS		Hill slope	1.27
O=C(Oc1cncc(Cl)c1)c1cccs1	rep main protease	enzyme activity, inhibitor		Hill slope	0.87 ± 0.02

Repeated from above:
SMILES	target	assay	setting	measurement	result
CNC(=O)CC[C@H](Cc1ccccc1)NC(=O)[C@@H](Cc1ccc(Cl)cc1Cl)NC(=O)[C@H](N)Cc1ccccc1[N+](=O)[O-]	rep main protease	3CL protease activity	1 µM	remaining activity	66.6%
